Assay results collected from several papers.
Every numbered part comes from another study and shows a few of its results, in no order.

Set 1 — technique: protein binding microarray; form: double-stranded DNA, one strand shown; medium: in vitro; concentration: not given; baseline: not given; reading: higher = stronger binding
Target: Histone acetyltransferase KAT6A, winged helix 1, GST fusion (KAT6A, Homo sapiens, UniProt Q92794, residues 1-85)
Setting: 8-mer, flanks averaged, mean of 2 arrays, mostly near background
Construct (chain): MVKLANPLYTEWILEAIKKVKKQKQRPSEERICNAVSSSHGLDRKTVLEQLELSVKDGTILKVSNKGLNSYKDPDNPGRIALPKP
Strand	E-score
CCCTATCA	-0.253
CCGCACGG	0.395
CTACCGAG	0.11
TCCCCAGA	-0.26
CGTAGCGA	0.179
AGCACGAA	-0.191
CTCCTGAA	0.039
ACTCATAG	-0.128
CAAGTCAC	-0.0264
ACCACACT	-0.175
CACTCTCA	-0.128
CTCCCTTA	-0.224
ATTAAATG	-0.116
AACGGAAC	0.156
CGGGAGCA	0.144
ACACAAGT	-0.184
AGTGGGCA	-0.221
CGTAATAG	0.0731
GCCCAACA	-0.0916
ATCGGGAC	0.0624
ATATCGGG	0.123
CACCATTC	-0.145
AGGTAGAG	-0.147
AGACAACG	0.0162
AGCTTCTC	-0.0434

Set 2 — technique: RNA Bind-n-Seq; form: RNA; medium: in vitro; concentration: 200 nM; setting: whole 134-nt RNA, ends assumed; added: 150 mM LiCl; baseline: input library; reading: higher = stronger binding; each molecule: 7-deaza-guanosine replaces G
Target: Fragile X messenger ribonucleoprotein 1, C-terminal low-complexity region (Fmr1, Mus musculus, UniProt P35922)
Shared flanks, not repeated: GGGAGUUCUACAGUCCGACGAUC … UGGAAUUCUCGGGUGUCAAGG
Strand	log2 enrichment
AAGUCCUGUGCUACACAUCGUAUGUACCGAAUCAAAUUUUUAAACCCAAACCCAAAAAAGUAUUAUGUUACGCCGUUCGGAUCUGCACUU	0.527
CACAGACAACACGCACCCACACAGACACAGAGGGAAGGGGUUGGGAUGGGGACAGGGGGCACAGCAGGGCGGGGUAGGACCCCAGCCCCU	0.603
GUCCUGUGCUACACAUCGUAUGUACCGAAUCGGGGAAAGGGGAAAAAGGGGUUUGGGGAAAGUAUUAUGUUACGCCGUUCGGAUCUGCAC	-0.558
ACCAUGCAGGUGGGCAUCUUUGGGAAGUGGGGCAAGGGGGGGAUAGGGAGGGGGGAAACACUUUGGGAACAGGUGGUCCCAGGUCGUUUC	0.813
ACCAUGCAGGUGGGCAUCUUUGGGAAGUGGGGCAAGGGGGGGAUAGGGAGGGGGGUAACACUGUGGGAACAGGUGGUCCCAGGUCGUUUC	1.68
GCAGGAAGUAAAAACAAAUGGAAAUGCUUCGGAUAGUGGCAGGGGUGGGGGUUGCUAAGGAAAGGGUGGGAUGGGAGUUGGUAAAGAGUU	1.22
CACAGACAACACGCACCCACACAGAAACAGAGGGAAGGGGUUGGGAUGGGGACAGGGUGCACAGCAGGGCGGGGUAGGACCCCAGCCCCU	0.816
UGCCCAGCUCAUGCUGGACCACCUGAAGAACAGUGCUCCCAGCAAGCGAGAGAUUGCCCAGCUCAAGAACCAGGUAUCCACAGAGAGCAC	0.179
UCCUGUGCUACACAUCGUAUGUACCGAAUCGGGGUUUUUUGGUUUUUUGGUUUUUUGGGGAAAGUAUUAUGUUACGCCGUUCGGAUCUGC	-1.46
UGGCGCUGGUGGCAUGCGGGGAGGAAGAGGUGGCCUCAUGGAUCGUGGUGGUCCCGGUGGAAUGUUCAGAGGUGGCCGUGGUGGAGACAG	0.101
UGGGAGGUGGAUUUUGUUUAUUUUUUUAGCUCAUUUCCAGGGGUGGGAUUUUUUUUUUAAUAUGUGUCAUGAAUAAAGUUGUUUUUGAAA	-0.0473

Set 3 — technique: universal PBM; form: double-stranded DNA, one strand shown; medium: in vitro; concentration: not given; reading: higher = stronger binding
Target: Sal-like protein 4, full length isoform B (SALL4, Homo sapiens, UniProt Q9UJQ4-2, residues 1-616)
Setting: 8-mer, flanks averaged, mean of replicates
Strand	E-score
GATATTAA	0.384
TACGACAA	0.0623
GTAGCGAC	-0.193
AGTAGATG	0.185
AGACCACG	-0.269
CTCACGAG	-0.2
AGGATTCG	-0.0341
ATCCATTC	0.122
GACGCGTC	-0.3
GGGACTTA	0.00905
CGGAAAGA	-0.162
ACAGCATG	-0.118
CGCCGAAA	-0.107
TGAAGGAA	0.166
GCAGTTGA	-0.106
GACTTCAC	-0.26
CCCTATCG	-0.0888
GGTCAAAC	-0.0657
AAAGATAC	0.0457
CAAGCCTA	0.0661
AAGTCCGG	-0.175
CACGCTTC	-0.224
AGTTGAGG	-0.0652
AATGAGTC	0.106

Set 4 — technique: RNA Bind-n-Seq; form: RNA; medium: in vitro; concentration: 365 nM; baseline: no-protein control; reading: higher = stronger binding
Target: RNA binding protein fox-1 homolog 2, RRM domain, GST-SBP tag (RBFOX2, Homo sapiens, UniProt O43251-10, residues 100-194)
Setting: natural RNA segment, single round, ends assumed
Shared flanks, not repeated: GGGAGUUCUACAGUCCGACGAUC … UGGAAUUCUCGGGUGCCAA
Target sequence (chain): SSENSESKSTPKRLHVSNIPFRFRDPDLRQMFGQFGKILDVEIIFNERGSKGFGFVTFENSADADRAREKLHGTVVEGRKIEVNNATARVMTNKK
Strand	RBNS enrichment (R)
CUAAAUGUUUUCAAAAUGUAAGUUCCUGUGGAGAAGAAUUGUUUAUAUUGCAAACGGGGGGACUGAGGGGAACCUGUAGGUUUAAAACAGUAUGUUUGUCAGCCAACUGA	0.81
GCCUCUCCAGUGAUUUUUUUUCCCAUUUUCUUCAGUGUUUCUAUAGCAGAGAUUUGAUAAUAAAAAGAAAAUCCUAAACAAUGAGAAAUAAAGUUACCUGGUUUCUCUGU	0.527
GUGUCAACAGAUGCAUUCAUUUCUCUUGGAAUGUGUAUUGUUUUUAUUUUGCGAAACAAAACAAAACAAAAAAAAAAGCUUGGAACUCCAUCACGUGGAAAAACUAGAUC	0.801
GCCCGCAUGAGAGAGGUGUGUGAUGAAGUCAAAGCACACCUGCUGGCAGACAUGGCCCACAUCAGUGGCCUGGUGGCUGCCAAGGUGAUUCCCUCGCCUUUCAAGCACGC	2
GACUGGCCCCAUUGCUUGAGCCCCUGUGCGACCCUUGACCUCCAGCCUUAGUUCUCCUGGAAGCUGCCAACUGCUUACGGGAGUGGGUAGAUUGGGCGUCUGAGACCCAG	0.599
CAAUGGAUGUAAACAUUUUUGAAAGAAUAAAGCAGAAUUAUAUAAUAUGAAAUGCUAUGUAAAGUUUUCUAUGUAAAAAAAUAUUAUGUAUAAUACUGUUAAAUACCCCA	0.661
AAACUCCAUUCUAGAUGUUAGGAAAGUUGUAACAUGCACACUCACUCAGCCGAUCAGGAAUCAUUGGCAGAUGCACAUGCCCUGGAACUUUCCCUUAGUUUUGUGAACUC	1.27
CCAGCUCUCCCUCUGGCCCUGCCUUCUUCGGGGAACUCCUGGAAAUAUCAGUUACUCAGCCCUGGGCCCCACCACCUAGGCCACUCCUCCAAAGGAAGUCUAGGAGCUGG	0.366
GUCUCUCUUCUCCUUUAUAAAAUCCUCUGUGGUCAACUGACUACUGCGUAUCGCAGUGGAAUAAGACUGCACAGUUGCUGGUAGGUGAGUUUAAAGUCUUAAUCUAUGCA	0.748
GAGAGAUGGCUCAGUGGUUAAGAGCACCGACUGCUCUUCCAGAGGUCCUGUGUUCAAUUCCCAGCAACCACAUGGUGGCUCACAACCAUCCGUAAUGAGAUCUGAUGCCC	0.33
GUCAAUGGCUUACAGGCUGCUAAGGAGCAGACUGUACUUUAAAGAGAAUUGUGAUCUUCACCUUCUAAUUGAUUCUUUUUAAAAAAAGAAUUCCUAUAUUUUCAGUGGAU	0.597
GGGCUCCAAGCACAAACUGCCAUUGGCUAUAGAUGGGACUGUGUCCCCCCAAAAUUCAUGUGUUGGAGCCUUAACCCUCAAUGUGAUGGUAUUUGAGAUGGGGCCUUUGG	0.341

Repeated from above (set 1):
Strand	E-score
AGTGGGCA	-0.221
CGTAATAG	0.0731
GCCCAACA	-0.0916
ATCGGGAC	0.0624
ATATCGGG	0.123
CACCATTC	-0.145
